Assay results from different studies.
Lines come from different studies, so protocols differ. Values joined by “and” are separate records of one study, mostly repeats; a detail may differ. ± marks the error that the study gave.
Chain of UniProt Q9NUW8 (whole entry, looked up): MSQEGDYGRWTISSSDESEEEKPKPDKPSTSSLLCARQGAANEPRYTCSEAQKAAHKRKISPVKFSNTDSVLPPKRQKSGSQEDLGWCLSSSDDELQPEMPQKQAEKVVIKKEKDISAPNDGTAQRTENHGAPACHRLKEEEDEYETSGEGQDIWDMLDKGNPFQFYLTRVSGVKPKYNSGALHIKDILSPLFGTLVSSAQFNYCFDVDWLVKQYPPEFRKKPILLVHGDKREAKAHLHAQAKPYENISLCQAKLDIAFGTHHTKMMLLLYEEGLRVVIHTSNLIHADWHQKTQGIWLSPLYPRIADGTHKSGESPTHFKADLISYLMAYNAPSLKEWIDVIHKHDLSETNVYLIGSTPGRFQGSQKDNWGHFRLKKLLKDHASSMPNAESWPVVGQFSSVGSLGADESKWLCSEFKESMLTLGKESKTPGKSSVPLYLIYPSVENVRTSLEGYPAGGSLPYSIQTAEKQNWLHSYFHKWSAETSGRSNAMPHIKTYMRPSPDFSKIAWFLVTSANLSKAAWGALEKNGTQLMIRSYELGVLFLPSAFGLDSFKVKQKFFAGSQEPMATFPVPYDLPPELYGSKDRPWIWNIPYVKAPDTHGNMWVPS

Structure (SMILES) | target or system | test | system | setting | scale | endpoint | value
CC(C)C[C@H](NC(=O)[C@H](Cc1ccc(O)cc1)NC(=O)[C@@H](CCCNC(=N)N)NC(=O)[C@@H](CO)NC(=O)[C@H](Cc1ccccc1)NC(=O)[C@H](CC1CCCCC1)NC(=O)[C@H](CC(=O)O)NC(=O)CN1CCN(CC(=O)O)CCN(CC(=O)O)CCN(CC(=O)O)CC1)C(=O)N[C@@H](Cc1c[nH]c2ccccc12)C(=O)N[C@@H](CO)C(=O)O [copper-64 labelled] |  |  | human, lung | concentration not given, 3 h |  | activity concentration | 977 Bq/mL and 508 Bq/mL and 589 Bq/mL and 560 Bq/mL and 274 Bq/mL and 450 Bq/mL
N#CCCn1cc(C=NOCc2ccc(-c3nc4cc(-c5ccccc5)ccn4c3Nc3ccc(C(=O)O)cc3)cc2)c(-c2cccc(Br)c2)n1 (mixture of isomers) | TDP1 (Homo sapiens, UniProt Q9NUW8) | enzyme activity, inhibitor |  | 100 µM, unpurified compound |  | inhibition | 47.4%
COC1CN([C@H]2CC[C@H]([C@@]3(C)Oc4c(Cl)cc(C(=O)NCc5c(SC)cc(C)[nH]c5=O)c(C)c4O3)CC2)C1 |  | RNA-seq, item: CACNA1E mouse homolog | mouse, HT-1376 xenograft, whole blood | dose not given | relative to: vehicle | log2 fold change | 0.435
c1ccc(-c2n[nH]cc2-c2ccnc3ccccc23)nc1 | PBS2 (Candida albicans) | kinase binding, MIB/MS competition | Candida albicans lysate | 1 µM | relative to: DMSO | log2 fold change | -0.03
C=C(NC(=O)c1csc(-c2nc3c(cc2O)-c2nc(cs2)C(=O)NC(C(C)O)C(=O)NC(=C(C)OC)c2nc(cs2)C(=O)NC2c4nc(cs4)C(=O)NC(COC(=O)c4c5c6c(cccc6n4O)COC(=O)C(OC4CC(C)(O)C(N(C)C)C(C)O4)C2OC5)c2nc-3cs2)n1)C(N)=O (stereo not shown) |  |  | ICR mice, Streptococcus pneumoniae ATCC 49169 infected, immunocompromised, blood | intravenous, 32 mg/kg/day twice daily |  | AUC(0-inf) | 1820 ng·h/mL
Nc1ncc(-c2cc(-c3cnn(CC(F)(F)F)c3)ncc2F)nc1C(=O)NC1CNCC(F)C1 (stereo not shown) | ALK | KINOMEscan |  | 1 µM | relative to: DMSO control | remaining binding | 78%
Cn1ncc2cc(-c3cncc(Cl)c3N3CCC4(CCNC4=O)CC3)ccc21 | LS174T | gene expression, microarray, item: PTPRZ1 mRNA |  | concentration not given, 24 h | relative to: untreated cells | log2 fold change | 2.22
CCCC[C@H](NC(=O)COCCOCCNC(=O)CN1CCN(CC(=O)O)CCN(CC(=O)O)CC1)C(=O)N[C@H]1CC(=O)NCCCC[C@@H](C(N)=O)NC(=O)[C@H](Cc2c[nH]c3ccccc23)NC(=O)[C@H](CCCNC(=N)N)NC(=O)[C@@H](Cc2ccccc2)NC(=O)[C@H](Cc2c[nH]cn2)NC1=O [technetium-99m labelled] |  |  | C57 mouse, brain | intravenous, 0.037 MBq, 2 h |  | tissue uptake | 0.03 ± 0.01 %ID/g
CNS(=O)(=O)Nc1nccc(Cc2c(C)c3ccc(Oc4ncccc4F)cc3oc2=O)c1F | SNU-81 | cell viability, CellTiter-Glo |  | 7 days |  | IC50 | 550 nM
C=CC(=O)Nc1cccc(Cn2ncc3cnc(Nc4cnn(CCOC)c4)nc32)c1 | EPHA5 human | binding, KINOMEscan |  | 100 nM | lower = stronger binding | percent of control | 80%
Cc1ncsc1-c1ccc(C(C)NC(=O)C2CC(O)CN2C(=O)C(NC(=O)CCCCCCCCCCN2CCCC(Nc3ncc(Cl)c(Nc4ccccc4S(=O)(=O)C(C)C)n3)C2)C(C)(C)C)cc1 (stereo not shown) | 22Rv1 | RNA-seq, item: RHOV mRNA |  | concentration not given | relative to: DMSO | log2 fold change | -1.05
CN1CCCNC(=O)c2cccc(c2)C(=O)NCCCN(C)CCCNc2cccc3c2C(=O)c2cccc(c2C3=O)NCCC1 | SAS | RNA-Seq, item: PDCD11 mRNA |  | 1 µM, 6 h | relative to: untreated cells | log2 fold change | -0.698
C=CC(=O)N1[C@@H](c2ccc3c(c2)OCO3)c2[nH]c3ccccc3c2C[C@H]1C(=O)N1CCN(C)CC1 | CCNE1 WT-3xFLAG:CDK2 complex | co-IP TMT proteomics, item: KIF20B | HEK-293T | 20 µM, 6 h | relative to: DMSO | log2 fold change | -0.14
